# Assay results of several laboratories.
# Each line is one published result; not all experiments were run side by side. Numbers after ± are the reported error.
SMILES,test,system,setting,half-life [h]
COc1ccc(/C=C\c2cc(OC)c(OC)c(OC)c2)cc1OP(=O)(O)O,,"Sprague-Dawley rat male, plasma","intravenous, 28 mg/kg",0.97 ± 0.37
CN(CCOc1ccc(CC2SC(=O)NC2=O)cc1)c1ccccn1 (stereo not drawn),,"Sprague-Dawley rat, female, plasma","intraperitoneal, 5 mg/kg of dasatinib, added: dasatinib co-dosed",1.6 ± 0.38
CCc1oc2ccc(OC)cc2c1C(=O)c1cc(Br)c(O)c(Br)c1,,"Sprague-Dawley rats, male, whole blood","intravenous, 0.5 mg/kg",1.3 ± 0.1
O=C(/C=C/c1ccc(O)c2c1[C@H](C(=O)O)[C@@H](c1ccc(O)c(O)c1)O2)O[C@H](Cc1ccc(O)c(O)c1)C(=O)O,UPLC-MS/MS,"Wistar rat, microcirculation dysfunction model, plasma","oral, 100 mg/kg Salvia miltiorrhiza stem-leaf extract FS",3.3 ± 3.49
CC(C)=CCC[C@](C)(O[C@@H]1O[C@H](CO[C@@H]2O[C@H](CO)[C@@H](O)[C@H](O)[C@H]2O)[C@@H](O)[C@H](O)[C@H]1O)[C@H]1CC[C@]2(C)[C@@H]1[C@H](O)C[C@@H]1[C@@]3(C)CC[C@H](O[C@@H]4O[C@H](CO)[C@@H](O)[C@H](O)[C@H]4O[C@@H]4O[C@H](CO)[C@@H](O)[C@H](O)[C@H]4O)C(C)(C)[C@@H]3CC[C@]12C,,"Sprague Dawley rats, male, plasma","oral, 86 mg/kg, aqueous solution, added: co-dosed pure ginsenoside mixture",13.7 ± 7.1
CCc1oc2cc(O)ccc2c1C(=O)c1cc(Br)c(O)c(Br)c1,,"male Sprague-Dawley rat, whole blood","intravenous, 0.5 mg/kg",4 ± 1.4
CC(C)=CCC[C@](C)(O[C@@H]1O[C@H](CO)[C@@H](O)[C@H](O)[C@H]1O)[C@H]1CC[C@]2(C)[C@@H]1[C@H](O)C[C@@H]1[C@@]3(C)CC[C@H](O[C@@H]4O[C@H](CO)[C@@H](O)[C@H](O)[C@H]4O[C@@H]4O[C@H](CO)[C@@H](O)[C@H](O)[C@H]4O)C(C)(C)[C@@H]3CC[C@]12C,,"Sprague Dawley rat, male, plasma","oral, 42 mg/kg, red ginseng extract",32.5 ± 6.2
CCC[C@@]1(CCc2ccccc2)CC(O)=C([C@H](CC)c2cccc(NS(=O)(=O)c3ccc(C(F)(F)F)cn3)c2)C(=O)O1,,"Sprague Dawley rat, male, plasma","oral, 5 mg/kg, lipid-free formulation",3.57 ± 0.73
C=CC(=O)Nc1cc(Nc2nccc(-c3cn(C)c4ccccc34)n2)c(OC)cc1N(C)CCN(C)C,,"Sprague-Dawley rat, male, plasma","oral, 10 mg/kg",4.08 ± 0.98
CCc1oc2ccc(F)cc2c1C(=O)c1cc(Br)c(O)c(Br)c1,,"Sprague-Dawley rats, male, whole blood","intravenous, 0.5 mg/kg",1.2 ± 0.1
CCCC[C@H](NC(C)=O)C(=O)N[C@H]1CCC(=O)NC[C@@H](C(=O)N[C@@H](Cc2c[nH]c3ccccc23)C(N)=O)NC(=O)[C@H](CCCNC(=N)N)NC(=O)[C@@H](Cc2ccccc2)NC(=O)[C@H](Cc2c[nH]cn2)NC1=O,,"CD Sprague Dawley rat, male, plasma","subcutaneous, 5.0 mg/kg daily, day 1",6.12
Nc1nc2c(ccc3ccccc32)s1,,"rat Sprague-Dawley, male, plasma","intravenous, 10 mg/kg, three-compartment model",12
CC(C)C[C@H]1C(=O)N2CCC[C@H]2[C@]2(O)O[C@](NC(=O)[C@@H]3C=C4c5cccc6[nH]c(Br)c(c56)C[C@H]4N(C)C3)(C(C)C)C(=O)N12,,"male Sprague-Dawley rats, plasma","intravenous, 0.1 mg/kg, added: DAL 1.7 mg/kg plus HAL 0.7 mg/kg",0.401 ± 0.0783
O=C(O)/C=C/c1ccc(O)c(O)c1,UPLC-MS/MS,"Wistar rat, microcirculation dysfunction model, plasma","oral, 100 mg/kg Salvia miltiorrhiza stem-leaf extract FT",15.9 ± 24.9
O=C(O)C[C@H](O)C[C@H](O)/C=C/c1c(C2CC2)nc2ccccc2c1-c1ccc(F)cc1,,"male Sprague-Dawley rat (wild type), plasma","oral, 5 mg/kg",2.98 ± 0.62
Cc1nc2cccc(OCC(C)(C)C(=O)NC(C)C)c2c(N)c1C(=O)O,,"male Sprague-Dawley rat, plasma","oral gavage, 10 mg/kg, day 1",1.21
CCN1CCN(c2ccc(Nc3cc(N(C)C(=O)Nc4c(Cl)c(OC)cc(OC)c4Cl)ncn3)cc2)CC1,LC-MS/MS,"juvenile female Crl:WI(Han) rats, plasma","oral gavage, 1.0 mg/kg/day, postnatal day 17",3.41
Cn1nnc2c(C(N)=O)ncn2c1=O,,"male athymic rat, intracranial U87 glioma, tumour extracellular fluid","oral, 50 mg/kg, recovery-corrected microdialysis, added: before cediranib",1.9
O=C(/C=C/c1ccc(O)c(O)c1/C=C/c1ccc(O)c(O)c1)O[C@H](Cc1ccc(O)c(O)c1)C(=O)O,UPLC-MS/MS,"Wistar rat, microcirculation dysfunction model, plasma","oral, 100 mg/kg Salvia miltiorrhiza stem-leaf extract FT",9.26 ± 14
CC(C)=CCC[C@](C)(O[C@@H]1O[C@H](CO)[C@@H](O)[C@H](O)[C@H]1O)[C@H]1CC[C@]2(C)[C@@H]1[C@H](O)C[C@@H]1[C@@]3(C)CC[C@H](O[C@@H]4O[C@H](CO)[C@@H](O)[C@H](O)[C@H]4O)C(C)(C)[C@@H]3CC[C@]12C,,"Sprague-Dawley rat, plasma","oral, 100 mg/kg of parent ginsenoside, control group, no prebiotic",3.06 ± 0.29
CC(C)=CCC[C@](C)(O[C@@H]1O[C@H](CO)[C@@H](O)[C@H](O)[C@H]1O)[C@H]1CC[C@]2(C)[C@@H]1[C@H](O)C[C@@H]1[C@@]3(C)CC[C@H](O)C(C)(C)[C@@H]3[C@@H](O[C@@H]3O[C@H](CO)[C@@H](O)[C@H](O)[C@H]3O[C@@H]3O[C@@H](C)[C@H](O)[C@@H](O)[C@H]3O)C[C@]12C,,"Sprague Dawley rat, male, plasma","oral, 45 mg/kg, white ginseng extract",6.5 ± 1.2
NC(=O)N1c2ccccc2C=Cc2ccccc21,,"rat, Sprague Dawley, both sexes, plasma","oral, 10 mg/kg, alone",3.8
CC(C)=CCC[C@](C)(O[C@@H]1O[C@H](CO)[C@@H](O)[C@H](O)[C@H]1O)[C@H]1CC[C@]2(C)[C@@H]1[C@H](O)C[C@@H]1[C@@]3(C)CC[C@H](O)C(C)(C)[C@@H]3[C@@H](O[C@@H]3O[C@H](CO)[C@@H](O)[C@H](O)[C@H]3O)C[C@]12C,,"Sprague Dawley rat, male, plasma","oral, 25 mg/kg, white ginseng extract",32.2 ± 4.1
O=C(/C=C/c1ccc(O)c(O)c1)O[C@H](Cc1ccc(O)c(O)c1)C(=O)O,UPLC-MS/MS,"Wistar rat, microcirculation dysfunction model, plasma","oral, 100 mg/kg Salvia miltiorrhiza stem-leaf extract FS",2.1 ± 1.73

# Excerpt of the above:
SMILES,test,system,setting,half-life [h]
CC(C)C[C@H]1C(=O)N2CCC[C@H]2[C@]2(O)O[C@](NC(=O)[C@@H]3C=C4c5cccc6[nH]c(Br)c(c56)C[C@H]4N(C)C3)(C(C)C)C(=O)N12,,"male Sprague-Dawley rats, plasma","intravenous, 0.1 mg/kg, added: DAL 1.7 mg/kg plus HAL 0.7 mg/kg",0.401 ± 0.0783
Cc1nc2cccc(OCC(C)(C)C(=O)NC(C)C)c2c(N)c1C(=O)O,,"male Sprague-Dawley rat, plasma","oral gavage, 10 mg/kg, day 1",1.21
COc1ccc(/C=C\c2cc(OC)c(OC)c(OC)c2)cc1OP(=O)(O)O,,"Sprague-Dawley rat male, plasma","intravenous, 28 mg/kg",0.97 ± 0.37
C=CC(=O)Nc1cc(Nc2nccc(-c3cn(C)c4ccccc34)n2)c(OC)cc1N(C)CCN(C)C,,"Sprague-Dawley rat, male, plasma","oral, 10 mg/kg",4.08 ± 0.98
